Measured values of several laboratories.
Each line is one published result; not all experiments were run side by side. “And” joins repeats or separate records; there may be more than shown. Numbers after ± are the reported error. In brackets after ≈: the same amount, converted by molar mass.

With `CCN(CC)CCCNC(=O)CSc1c2c(nc3cc(Cl)ccc13)CCCC2` the Emax was 63% (Mus musculus; gene silencing, high-content imaging; LDR reporter GFP cells; 30 h, confirmation, mean of two runs).
`CC1(C)[C@H](NC(=O)/C(=N\OC2(C(=O)O)CCCC2)c2csc(N)n2)C(=O)N1OS(=O)(=O)O` has an MIC of 0.5 mg/L (≈ 1.02 µM) (Shigella flexneri; agar dilution; ATCC 12022, susceptible).
`O=[N+]([O-])C(=C\Nc1ccccc1O)/C=N/c1ccccc1O` has an Emax of 17% (Mus musculus; gene silencing, high-content imaging; LDR reporter GFP cells; 30 h, retest run 1).
`O=S(=O)(c1ccc(-c2ccc3ncnc(Nc4ccc(OCc5cccc(F)c5)c(Cl)c4)c3c2)cc1)N1CCCC1` gave an EC50 of over 15 µM (Leishmania major; parasite growth, resazurin; promastigote).
`O=C(Oc1cc(OC(=O)c2cc(O)c(O)c(O)c2)c2ccccc2c1)c1cc(O)c(O)c(O)c1` gave an IC50 of 1.57 µM (Human alphaherpesvirus 2; viral replication, inhibitor, qPCR; HeLa).
`C#CCO/N=C(\C(=O)N[C@@H]1C(=O)N(OS(=O)(=O)O)C1(C)C)c1nsc(N)n1` has an MIC of 0.25 mg/L (≈ 0.597 µM) (Proteus vulgaris; agar dilution; ATCC 29905, susceptible).
`c1ccc(CN2CCOCCOCCN(CCCCCCCCCCCCN3CCOCCOCCN(CCCCCCCCCCCCN4CCOCCOCCN(Cc5ccccc5)CCOCCOCC4)CCOCCOCC3)CCOCCOCC2)cc1` gave a tetracycline MIC of 500 ± 50 µM (Klebsiella pneumoniae; ATCC BAA-2146; 2.5 µM, with: tetracycline).
For `COC(=O)C1=CO[C@@H](C)[C@@H]2Cn3ccc4c5ccccc5nc-4c3C[C@H]12`, the IC50 ratio was 1 (Plasmodium falciparum; growth; 3D7; 96 h, with: 200 µM IPP; reference: with IPP over without IPP).
The EC50 of `c1ccc(COc2ccc(Nc3ncnc4ccc(-c5cccc(N6CCOCC6)c5)cc34)cc2)cc1` is reported as 2.7 µM (Leishmania major; parasite growth, resazurin; promastigote).
The plaque reduction of `[2H]C([2H])(N)C([2H])([2H])NC(=O)c1cc(C2CC2)nc2c1cnn2C(C)C` is reported as 74.9% and 58.1% (Enterovirus D68; viral replication; RD, US/MO/14-18947; 300 nM).
With `CC1(C)[C@H](NC(=O)/C(=N\OC2(C(=O)O)CC2)c2nsc(N)n2)C(=O)N1OS(=O)(=O)O` the MIC was 1 mg/L (≈ 2.15 µM) (Shigella flexneri; agar dilution; ATCC 12022, susceptible).
`O=C(N/N=C/c1ccccn1)c1cc(-c2ccc(Cl)cc2)nc2ccccc12` has an AC50 of 10 µM (Mus musculus; gene silencing, high-content imaging; LDR reporter GFP cells; retest run 2).
The EC50 of `Fc1cccc(COc2ccc(Nc3ncnc4ccc(-c5cccc(N6CCSCC6)c5)cc34)cc2Cl)c1` is reported as over 15 µM (Leishmania major; parasite growth, resazurin; promastigote).
The MIC of `C[C@@H]1C(=O)O[C@@H](C)/C=C/C=C\[C@@H](C)[C@@H]2C=C[C@@H]3C[C@@]4(C)O[C@H]4[C@@H](C)[C@H]3[C@@H]2C(=O)C(Cl)(Cl)C1=O` is reported as 0.1 mg/L (≈ 0.202 µM) (Staphylococcus aureus; MRSA clinical isolate; resistant OXA/SXT).
`O=C(O)CN1C(=O)[C@@H](Cc2ccccc2)NC2(C1=O)C1CC3CC(C1)CC2C3` (stereo partly shown) gave an IC90 of 259 µM (Trypanosoma brucei; parasite growth; pH 7.4, blood stage).
With `O=S(=O)(c1cccc(-c2ccc3ncnc(Nc4ccc(OCc5cccc(F)c5)c(Cl)c4)c3c2)c1)N1CCCC1` the EC50 was over 15 µM (Leishmania major; parasite growth, resazurin; promastigote).
Under “log2 fold change”, `FC(F)(F)c1cccc(CNc2nc(NC3CCN(Cc4ccccc4)CC3)c3nc[nH]c3n2)c1` is recorded as -0.325 (Cryptococcus neoformans; RNA-seq, refers to: CNAG_04335; wild type; 48 µg/mL, 3 h; reference: untreated wild type).
For `Fc1cccc(COc2ccc(Nc3ncnc4ccc(-c5ccc(N6CCOCC6)cc5)cc34)cc2Cl)c1`, the EC50 was 4.4 µM (Leishmania major; parasite growth, resazurin; promastigote).
With `CC1(C)[C@H](NC(=O)/C(=N\OCC(=O)N2CCC[C@@H]2C(=O)O)c2nsc(N)n2)C(=O)N1OS(=O)(=O)O` the MIC was 0.5 mg/L (≈ 0.934 µM) (Proteus vulgaris; agar dilution; ATCC 29905, susceptible).
`COc1cc(NC=O)c(N(C)S(=O)(=O)c2ccc(N(C)C)cc2)cc1OC` gave a selectivity index of 0.22 (Leishmania infantum; intracellular amastigote growth; U-937 macrophages and HeLa; reference: IC50 HeLa over IC50 amastigotes).
`CN1CCN(S(=O)(=O)c2ccc(-c3ccc4ncnc(Nc5ccc(Cl)cc5)c4c3)cc2)CC1` gave an EC50 of 4.6 µM (Leishmania major; parasite growth, resazurin; promastigote).
The AC50 of `CCc1nnc(NC(=O)c2cccc(C(=O)Nc3nnc(CC)s3)n2)s1` is reported as 25.1 µM (Mus musculus; gene silencing, high-content imaging; LDR reporter GFP cells; retest run 2).
`CC(=O)OC[C@H]1O[C@@H](Sc2sc(C(=O)c3ccc(Br)cc3)c(N)c2-c2nc3ccccc3s2)[C@H](OC(C)=O)[C@@H](OC(C)=O)[C@H]1OC(C)=O`: “viral titre reduction” 10% (human adenovirus type 7; plaque reduction; non-toxic concentration).
For `COc1ccc(NC(=O)CSc2nc3c(oc4ccccc43)c(=O)n2Cc2ccco2)cc1Cl`, the AC50 was 10 µM (Mus musculus; gene silencing, high-content imaging; LDR reporter GFP cells; retest run 2).
`Cc1c(CN(C)C(=O)/C=C/c2cnc3c(c2)CC(N)C(=O)N3)oc2ccccc12` (stereo not shown) has an MIC of 16 mg/L (≈ 41 µM) (Klebsiella pneumoniae; broth microdilution; AR-0347).
Under “upregulated G4-containing genes”, `Cc1cnc(CNC(=O)c2c(=O)c3ccc(N4CCCN(C)CC4)nc3n3c2sc2ccccc23)cn1` is recorded as 3 genes (Trypanosoma brucei; RNA-seq; Lister 427 bloodstream form; 2 x EC50, 4 h, overlap, with peaks, G4 ChIP-seq; reference: untreated).
For `CN1CCN(S(=O)(=O)c2cccc(-c3ccc4ncnc(Nc5ccc(OCc6cccc(F)c6)c(Cl)c5)c4c3)c2)CC1`, the EC50 was over 15 µM (Leishmania major; parasite growth, resazurin; promastigote).
With `CC(C)n1ncc2c(C(=O)NC[C@@H](C)N)cc(C3CC3)nc21` the plaque reduction was 0% (Enterovirus D68; viral replication; RD, US/MO/14-18947; 10 nM).
`COc1cccc(/C=N/Nc2nc(Nc3ccccc3)nc(-n3nc(C)cc3C)n2)c1O` gave an Emax of 91% (Mus musculus; gene silencing, high-content imaging; LDR reporter GFP cells; 30 h, retest, mean of two runs).
Under “viral titre reduction”, `CC(=O)OC[C@H]1O[C@@H](Sc2sc(C(=O)c3ccc(C)cc3)c(N)c2-c2nc3ccccc3s2)[C@H](OC(C)=O)[C@@H](OC(C)=O)[C@@H]1OC(C)=O` is recorded as 10% (human adenovirus type 7; plaque reduction; non-toxic concentration).
`COc1nc(Nc2nc(O)c3ccccc3n2)nc2ccc(C)cc12` gave an AC50 of 3.98 µM (Mus musculus; gene silencing, high-content imaging; LDR reporter GFP cells; retest run 2).
The liver weight of `CC(C)(C)NCC(SS(=O)(=O)O)c1ccccc1` (stereo not shown) is reported as 2.3 g and 1.75 g and 2.2 g and 2.4 g and 1.9 g (Schistosoma mansoni; perfusion day 44; infected Swiss Webster mice; 600 mg/kg single dose, dosed day 7 post-infection).
For `CC1(C)[C@H](NC(=O)/C(=N\OCCN)c2csc(N)n2)C(=O)N1OS(=O)(=O)O`, the MIC was 2 mg/L (≈ 4.73 µM) (Shigella flexneri; agar dilution; ATCC 12022, susceptible).
`CC1=C/C(=N\N=C(/S)Nc2cccnc2)CC(C)(C)C1` gave an Emax of 58% (Mus musculus; gene silencing, high-content imaging; LDR reporter GFP cells; 30 h, retest run 1).
With `Fc1cccc(COc2ccc(Nc3ncnc4ccc(-c5cccc(CN6CCOCC6)c5)cc34)cc2Cl)c1` the EC50 was 3.3 µM (Leishmania major; parasite growth, resazurin; promastigote).
With `CC(C)n1ncc2c(C(=O)NCC(C)(C)N)cc(C3CC3)nc21` the plaque reduction was 98.7% and 99.1% (Enterovirus D68; viral replication; RD, US/MO/14-18947; 1000 nM).
With `C=C(NC(=O)c1csc(-c2nc3c(cc2O)-c2nc(cs2)C(=O)NC(C(C)O)C(=O)NC(=C(C)OC)c2nc(cs2)C(=O)NC2c4nc(cs4)C(=O)NC(COC(=O)c4c5c6c(cccc6n4O)COC(=O)C(OC4CC(C)(O)C(N(C)C)C(C)O4)C2OC5)c2nc-3cs2)n1)C(N)=O` (stereo not shown) the MIC50 was 0.0078 mg/L (≈ 0.00543 µM) (Streptococcus pyogenes; 10 isolates; serum 0%).

For quick reference, copied from above:
The liver weight of `CC(C)(C)NCC(SS(=O)(=O)O)c1ccccc1` (stereo not shown) is reported as 2.3 g and 1.75 g and 2.2 g and 2.4 g and 1.9 g (Schistosoma mansoni; perfusion day 44; infected Swiss Webster mice; 600 mg/kg single dose, dosed day 7 post-infection).
`O=S(=O)(c1ccc(-c2ccc3ncnc(Nc4ccc(OCc5cccc(F)c5)c(Cl)c4)c3c2)cc1)N1CCCC1` gave an EC50 of over 15 µM (Leishmania major; parasite growth, resazurin; promastigote).
The EC50 of `c1ccc(COc2ccc(Nc3ncnc4ccc(-c5cccc(N6CCOCC6)c5)cc34)cc2)cc1` is reported as 2.7 µM (Leishmania major; parasite growth, resazurin; promastigote).
With `CC1(C)[C@H](NC(=O)/C(=N\OC2(C(=O)O)CC2)c2nsc(N)n2)C(=O)N1OS(=O)(=O)O` the MIC was 1 mg/L (≈ 2.15 µM) (Shigella flexneri; agar dilution; ATCC 12022, susceptible).
Under “upregulated G4-containing genes”, `Cc1cnc(CNC(=O)c2c(=O)c3ccc(N4CCCN(C)CC4)nc3n3c2sc2ccccc23)cn1` is recorded as 3 genes (Trypanosoma brucei; RNA-seq; Lister 427 bloodstream form; 2 x EC50, 4 h, overlap, with peaks, G4 ChIP-seq; reference: untreated).
